# Measurements from different studies.
# Lines come from different studies, so protocols differ.
# Action: agonist
# MTNR1A: Melatonin receptor type 1A (MTNR1A, Homo sapiens, UniProt P48039)
# UniProt P48039, sequence (whole entry, looked up): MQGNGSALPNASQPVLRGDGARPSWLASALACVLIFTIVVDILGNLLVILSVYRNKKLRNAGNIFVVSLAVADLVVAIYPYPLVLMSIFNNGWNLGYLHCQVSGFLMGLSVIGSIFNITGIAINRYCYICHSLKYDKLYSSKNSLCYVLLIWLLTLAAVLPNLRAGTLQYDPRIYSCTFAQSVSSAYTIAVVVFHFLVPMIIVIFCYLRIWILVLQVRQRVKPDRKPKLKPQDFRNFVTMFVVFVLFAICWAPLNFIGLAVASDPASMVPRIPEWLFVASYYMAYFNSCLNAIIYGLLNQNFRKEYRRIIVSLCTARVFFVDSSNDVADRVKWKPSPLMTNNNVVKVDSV
# HTR1F: 5-hydroxytryptamine receptor 1F (HTR1F, Homo sapiens, UniProt P30939)
# UniProt P30939, sequence (whole entry, looked up): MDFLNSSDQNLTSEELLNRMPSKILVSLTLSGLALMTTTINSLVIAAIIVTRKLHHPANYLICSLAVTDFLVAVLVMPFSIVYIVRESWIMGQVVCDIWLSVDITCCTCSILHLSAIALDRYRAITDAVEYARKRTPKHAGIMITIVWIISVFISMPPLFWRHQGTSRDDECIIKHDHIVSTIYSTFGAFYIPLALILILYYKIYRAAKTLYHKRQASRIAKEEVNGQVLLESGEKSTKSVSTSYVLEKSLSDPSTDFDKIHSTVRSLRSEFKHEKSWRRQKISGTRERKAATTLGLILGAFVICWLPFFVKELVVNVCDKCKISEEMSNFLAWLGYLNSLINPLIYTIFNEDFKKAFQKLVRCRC
# MTNR1B: Melatonin receptor type 1B (MTNR1B, Homo sapiens, UniProt P49286)
# UniProt P49286, sequence (whole entry, looked up): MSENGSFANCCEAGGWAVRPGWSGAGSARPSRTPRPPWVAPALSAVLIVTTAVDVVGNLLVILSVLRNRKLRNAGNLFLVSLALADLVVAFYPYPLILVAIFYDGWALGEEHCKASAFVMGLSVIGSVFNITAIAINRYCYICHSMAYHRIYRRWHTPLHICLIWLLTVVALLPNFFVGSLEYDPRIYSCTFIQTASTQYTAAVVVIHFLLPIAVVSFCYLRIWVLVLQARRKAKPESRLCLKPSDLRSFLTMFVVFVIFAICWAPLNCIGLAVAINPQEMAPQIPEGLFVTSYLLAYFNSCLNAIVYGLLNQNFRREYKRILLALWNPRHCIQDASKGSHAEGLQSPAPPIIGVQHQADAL
# UniProt P0DMS8, sequence (whole entry, unmodified, looked up): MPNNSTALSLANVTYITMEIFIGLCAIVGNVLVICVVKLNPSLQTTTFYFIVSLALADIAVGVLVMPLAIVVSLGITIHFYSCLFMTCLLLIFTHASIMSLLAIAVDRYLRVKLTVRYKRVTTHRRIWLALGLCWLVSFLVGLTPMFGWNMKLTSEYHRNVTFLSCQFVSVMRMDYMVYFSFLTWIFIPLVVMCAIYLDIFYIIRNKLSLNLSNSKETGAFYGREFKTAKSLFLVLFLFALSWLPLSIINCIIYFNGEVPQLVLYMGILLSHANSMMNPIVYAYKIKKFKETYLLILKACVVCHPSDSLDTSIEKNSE
# UniProt Q16581, sequence (whole entry, looked up): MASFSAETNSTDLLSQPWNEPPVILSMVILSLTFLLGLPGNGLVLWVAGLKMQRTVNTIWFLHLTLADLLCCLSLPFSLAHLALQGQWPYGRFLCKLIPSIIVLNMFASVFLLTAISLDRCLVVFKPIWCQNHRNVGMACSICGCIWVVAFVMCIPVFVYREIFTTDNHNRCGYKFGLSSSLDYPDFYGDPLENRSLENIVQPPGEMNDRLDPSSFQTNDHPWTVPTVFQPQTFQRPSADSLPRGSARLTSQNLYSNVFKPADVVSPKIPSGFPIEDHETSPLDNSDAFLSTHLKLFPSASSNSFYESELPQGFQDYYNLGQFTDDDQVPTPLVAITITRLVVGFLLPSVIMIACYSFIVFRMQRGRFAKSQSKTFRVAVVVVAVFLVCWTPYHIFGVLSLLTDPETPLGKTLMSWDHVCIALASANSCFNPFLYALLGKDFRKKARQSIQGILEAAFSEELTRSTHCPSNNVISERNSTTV
Compound,target,test,conditions,EC50
COc1cc(I)c2[nH]cc(CCNC(C)=O)c2c1,MTNR1A,β-arrestin recruitment,,60.3 nM
CN(C)CCCN1c2ccccc2Sc2ccc(Cl)cc21,HTR1F,"G protein activation, BRET",,111 nM
CCOc1cccc(CNc2cccnc2)c1,MTNR1A,"cAMP, luciferase",,44.5 nM
O=C1c2ccccc2S(=O)(=O)N1CCCCN1CCN(c2ncccn2)CC1,HTR1F,"G protein activation, BRET",,726 nM
CC(C)C[C@H](NC(=O)[C@@H](N)[C@@H](C)O)C(=O)N[C@@H](CCC(N)=O)C(=O)N1CCC[C@H]1C(=O)N1CCC[C@H]1C(=O)N[C@@H](C)C(=O)N[C@@H](CO)C(=O)N[C@@H](CO)C(=O)N[C@@H](CCCNC(=N)N)C(=O)N[C@@H](CCCNC(=N)N)C(=O)N[C@@H](CCCNC(=N)N)C(=O)N[C@@H](Cc1c[nH]cn1)C(=O)N[C@@H](Cc1ccccc1)C(=O)N[C@@H](Cc1c[nH]cn1)C(=O)N[C@@H](Cc1c[nH]cn1)C(=O)N[C@@H](C)C(=O)N[C@@H](CC(C)C)C(=O)N1CCC[C@H]1C(=O)N1CCC[C@H]1C(=O)N[C@@H](C)C(=O)N[C@@H](CCCNC(=N)N)C(=O)O,"C3AR1 (Homo sapiens, UniProt Q16581)","β-arrestin recruitment, BRET",,93.5 nM
CN(Cc1cccc(C(F)(F)F)c1)C(=O)c1cccc(OC(F)F)c1,MTNR1A,"cAMP, luciferase",,36.9 nM
COc1cc2c(CCNC(C)=O)c[nH]c2cc1I,MTNR1B,"GTPγS binding, radiometric",cell membranes,1.82 nM
COc1cc(C(=O)N2CCc3c(cccc3OC)C2)on1,MTNR1A,"cAMP, luciferase",,102 nM
CCC(=O)NC1Cc2ccccc2C(c2ccccc2)C1 (stereo not shown),MTNR1B,β-arrestin recruitment,,759 nM
CN(C)c1ncnc2c1ncn2[C@@H]1O[C@H](CO)[C@@H](O)[C@H]1O,"ADORA3 (Homo sapiens, UniProt P0DMS8, I253N/V169N)",G protein activation,,19000 nM

# Repeated from above:
Compound,target,test,conditions,EC50
CN(Cc1cccc(C(F)(F)F)c1)C(=O)c1cccc(OC(F)F)c1,MTNR1A,"cAMP, luciferase",,36.9 nM
